Measurements from different studies.
Each numbered part is a random draw from the data of one study; scales do not carry over between parts. Changes are numbered by the printed parent chain.

Series 1 — technique: RNA Bind-n-Seq; molecule type: RNA; matrix: in vitro; concentration: 365 nM; reference: no-protein control; direction: higher = stronger binding
Target: RNA binding protein fox-1 homolog 2, RRM domain, GST-SBP tag (RBFOX2, Homo sapiens, UniProt O43251-10, residues 100-194)
Notes: natural RNA segment, single round, ends assumed
Shared flanks, not repeated: GGGAGUUCUACAGUCCGACGAUC … UGGAAUUCUCGGGUGCCAA
Construct (chain): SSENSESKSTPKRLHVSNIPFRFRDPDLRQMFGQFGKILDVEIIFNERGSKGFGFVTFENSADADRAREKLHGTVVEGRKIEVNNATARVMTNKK
Strand | RBNS enrichment (R)
GAAGCCCCCUGUGUGACCUGAGCACAGACUCCAUUUCUUCAGGUUUUGUAUAUCUCCAGGCAAGGUGAAGGGUACCCUUCGGACCCGCCUCAUAAACCAUCUCUGCAUCA | 0.63
GUUAGAAUGUCUGCCUUACUGGUUUCCCCAGGGAAGGAAAAAUACACUUCCACCCUUUUUUCUAAGUGUUCGUCUUUAGUUUUGAUUUUGGAAAGAUGUUAAGCAUUUAU | 0.905
AGCCCCCUCAAGUCCUGGGGUCCCAGCCUGUGCCCCCAGCUUCCUGCCCACCCAGCCCUGAGCAUUCUCACACAGAGAAAGAACAAGCAAGGGCUCCAGGGGGACAGGAU | 0.345
UUCUGAGUGACAUGGGUGUGCCAGGCUAGACUAGGAGGUUCCGGUGUCUGGAAAAGCACUUUACAGAUGAGAUUCCCUCUCCUCCCCCACCUUCAAGCACCCUGUUCCCU | 0.299
UGACUAGACCUGUUUUUAAGGAAGCGCUGUCUGUUUUUAAGUAUUCUUAAAAACGUUUUGGAAAGCACUUCAGAUUUUACUGUUUACCAUGAGCCAUGGGUUUUUGUUUU | 0.393
AAAGGCCACCAUGAGGACAUCUCACCAACCUGUGCUCAGCAUGAACUGUGACAUCAGCCUUUGAUAGUAGGACAUUAUUUCUUGAUUUCCUUAUUAAAAGAAAAAAAUGG | 5.02
UCCCUACAGCCCAUAGUAGUGUCAGCGUGGACUGUAGGGCCCCAUUGGGUAUUAGGAUUUAGGCUCCCCCACCCCCACCAACUUUAAAGUGGUUGAGUAAUUUUUUUGUG | 0.94
AGUAUGCCUGUGCCAUCAGAGAAGAGAUCCCACCCCAGUAGGAAGGUAUGGGGCAGUCCAGUUUAUAACUUUGCAACCAAACCCAAGCCUGCUCUUUUUGAAGCAGCUGA | 0.455
CUGCCCAGCUUCCAGUUUUUAAAGAGAUGAACAGCUCUCACUUCCUGACUCAGUUUCUCUUGUUGGGUGGGGGCCUUGUGCCACAACCUGCAUGGGGUGCUAGGGUUUAA | 0.487
CCACGACUAUGGUGGGAAAAACCAUUUUUUAAAGGACACAUACGAUGGUGUAUCUCUCUGUGUAAUGGUGAGCCAUGCUGCAAGGUUGUAGCCUUGGCCCGAAGACAGAA | 0.225
AAGCGGCCCUGGUUGAAUCUGGCAAUUCUUUUUGCCAAGAUCCCUAGCAGAAGAUUUAGCCAUGUCCUUCCCCUCACUUGUGUGAGUGGCCCCUUCUGAAUCUCUCCAGC | 0.232
CCAUGCAUUAUAUACCCUGGUGCAAUCACACGACUGUCAUCUAAAGUCCUGGCCCUGGCCCUUACUAUUAGGAAAAUAAACAGACAAAAACAAGUAAAUAUAUAUGGUCA | 0.454

Series 2 — technique: DHFR PCA, deep sequencing; matrix: yeast; with: (+)-ABA 0 µM; reference: wild-type fitted maximum; direction: higher = stronger binding
Target: ABI1, truncated, D143A, DHFR fusion (Arabidopsis thaliana)
Notes: methotrexate growth selection, single substitutions
Starting sequence: PYL1, truncated, DHFR fusion (Arabidopsis thaliana); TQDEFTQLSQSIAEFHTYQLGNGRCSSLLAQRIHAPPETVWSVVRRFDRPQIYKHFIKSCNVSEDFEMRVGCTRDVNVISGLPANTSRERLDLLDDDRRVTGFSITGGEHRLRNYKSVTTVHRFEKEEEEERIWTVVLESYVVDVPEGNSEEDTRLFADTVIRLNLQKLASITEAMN; partner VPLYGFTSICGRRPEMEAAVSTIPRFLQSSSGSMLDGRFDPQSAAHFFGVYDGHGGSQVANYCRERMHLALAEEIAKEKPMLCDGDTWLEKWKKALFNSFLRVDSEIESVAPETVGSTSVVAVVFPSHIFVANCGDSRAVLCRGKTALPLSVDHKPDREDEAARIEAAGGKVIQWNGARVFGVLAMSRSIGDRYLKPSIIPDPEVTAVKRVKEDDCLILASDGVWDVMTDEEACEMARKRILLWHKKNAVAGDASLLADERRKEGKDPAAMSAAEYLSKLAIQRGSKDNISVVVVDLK
Change | relative binding score
P83K | 13.5%
G102R | -0.783%
V161E | -2.71%
Y141I | -1.83%
E147H | 13.1%
P50Y | 3.47%
H34S | 18.9%
T101R | -6.34%
T160P | -0.113%
L20G | 22.8%
R155E | -5.29%
G107E | 21.5%
R123V | -2.39%
D48H | -2.06%
F66H | 2.33%

Series 3 — target: CCNE2, cyclin fold, Cln2 fusion (human); technique: yeast growth competition, sequencing; matrix: yeast; notes: weak parent motif; reference: not given; direction: higher = stronger binding
Starting sequence: RB1 docking peptide (human); PKPLKKLRFDIEG
Change | normalised enrichment score
G13V | 0.725
G13P | 1.1
R8W | 0.329
K6I | 0.0699
K2I | 1.91
F9K | 0.441
R8S | 0.3
L7N | 0.427
P1K | 0.181
R8K | 0.736
E12L | 0.209
K2V | 0.73
K2G | 0.117
P3Y | 0.329
L4D | 1.3
D10L | 0.749
L7V | -0.184
K5E | -0.327

Series 4 — technique: aptamer microarray, sandwich; molecule type: DNA with 2'F-ANA; matrix: in vitro; concentration: 200 nM; with: Cy3 exosite-II aptamer, 400 nM; direction: higher = stronger binding; strand: GGTTGGTGTGGTTGG
Target: Prothrombin, mature alpha-thrombin (F2, Homo sapiens, UniProt P00734)
Notes: whole 15-mer aptamer, many near background
Modification | mean fluorescence intensity
2'F-ANA at 1 4 7 11 13 | 88.1 a.u.
2'F-ANA at 1 2 3 5 10 11 12 13 14 | 52 a.u.
2'F-ANA at 1 2 3 5 6 8 10 13 14 | 163 a.u.
2'F-ANA at 2 3 4 6 9 14 15 | 202 a.u.
2'F-ANA at 1 3 4 5 6 7 10 11 12 14 15 | 54.5 a.u.
2'F-ANA at 4 8 9 10 11 13 15 | 266 a.u.
2'F-ANA at 2 3 4 5 6 7 8 9 | 99.9 a.u.
2'F-ANA at 1 5 7 9 10 12 15 | 201 a.u.
2'F-ANA at 1 8 12 14 15 | 75.7 a.u.
2'F-ANA at 3 5 7 8 9 10 12 14 15 | 53.7 a.u.
2'F-ANA at 1 2 3 4 11 13 15 | 125 a.u.
2'F-ANA at 2 4 7 9 10 15 | 93.7 a.u.
2'F-ANA at 1 2 3 5 7 8 14 | 47.4 a.u.
2'F-ANA at 2 4 8 9 12 13 14 | 99.4 a.u.
2'F-ANA at 1 2 6 8 9 11 14 | 59.4 a.u.
2'F-ANA at 1 2 3 5 7 12 14 | 49.4 a.u.
2'F-ANA at 2 5 8 10 14 | 43.8 a.u.
2'F-ANA at 1 3 4 9 13 14 | 60.1 a.u.
2'F-ANA at 1 3 7 | 374 a.u.
2'F-ANA at 6 11 12 13 | 641 a.u.
2'F-ANA at 5 8 9 10 11 12 13 14 15 | 55.3 a.u.
2'F-ANA at 4 6 7 9 12 13 14 | 99 a.u.
2'F-ANA at 1 3 4 5 6 10 11 12 13 14 | 51.3 a.u.
2'F-ANA at 2 6 7 10 11 14 | 78.5 a.u.
2'F-ANA at 1 2 3 4 6 8 9 10 11 12 | 70.1 a.u.

Series 5 — technique: protein binding microarray; molecule type: double-stranded DNA, one strand shown; matrix: in vitro; concentration: not given; reference: not given; direction: higher = stronger binding
Target: Histone acetyltransferase KAT6A, both winged helices, GST fusion (KAT6A, Homo sapiens, UniProt Q92794, residues 1-181)
Notes: 8-mer, flanks averaged, mean of 2 arrays, mostly near background
Target sequence (chain): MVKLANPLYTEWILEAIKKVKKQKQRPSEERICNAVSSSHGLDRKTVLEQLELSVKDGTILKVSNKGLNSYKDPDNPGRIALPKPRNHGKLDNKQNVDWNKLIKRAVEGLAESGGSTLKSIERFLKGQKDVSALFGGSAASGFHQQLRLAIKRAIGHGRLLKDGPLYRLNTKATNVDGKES
Strand | E-score
AGGCTGGC | -0.196
ATTGGCCG | 0.144
AATTCGTA | -0.049
TCAATGCA | 0.00713
GTACCCAC | 0.0215
CAGAAAAG | -0.126
AATAGTAA | -0.187
CTCAAGAA | -0.139
CCGAGTGC | 0.201
AAGCCGCG | 0.354
ACAGGCGA | -0.062
ACAACGCC | 0.178
CAAAGCGA | -0.078
AGAGGGGC | -0.212
GCACTCGA | -0.119
CATAGGGC | -0.0134
AGATACAG | -0.0568
CAGCGCGA | 0.25
GCAAGAGC | -0.0571
CACGTGAA | 0.0369
AGGTTTTC | -0.0622

Single results of other studies
Molecule | target | test | system | conditions | how to read | measurement | value
PhoQ, residues 284 288 289 292 302 303 SLSVQF | PhoP, residues 12 14 15 18 19 STWGI (Escherichia coli, UniProt P23836) | Sort-seq, item: YFP reporter | E. coli | PhoQ-PhoP variant library, with: 10 µM Mg2+ | reference: high Mg2+ state, higher = stronger signaling | fold induction | 18.2

For quick reference, copied from above (series 4):
Modification | mean fluorescence intensity
2'F-ANA at 1 4 7 11 13 | 88.1 a.u.
2'F-ANA at 1 2 3 5 10 11 12 13 14 | 52 a.u.
2'F-ANA at 1 2 3 5 6 8 10 13 14 | 163 a.u.
2'F-ANA at 2 3 4 6 9 14 15 | 202 a.u.
2'F-ANA at 1 3 4 5 6 7 10 11 12 14 15 | 54.5 a.u.
2'F-ANA at 4 8 9 10 11 13 15 | 266 a.u.
2'F-ANA at 2 3 4 5 6 7 8 9 | 99.9 a.u.
